Results pooled from the literature.
A part holds a random share of what one study measured. Several values in a cell are separate wells, animals, samples, runs or records.
Chain of UniProt P49841 (whole entry, looked up): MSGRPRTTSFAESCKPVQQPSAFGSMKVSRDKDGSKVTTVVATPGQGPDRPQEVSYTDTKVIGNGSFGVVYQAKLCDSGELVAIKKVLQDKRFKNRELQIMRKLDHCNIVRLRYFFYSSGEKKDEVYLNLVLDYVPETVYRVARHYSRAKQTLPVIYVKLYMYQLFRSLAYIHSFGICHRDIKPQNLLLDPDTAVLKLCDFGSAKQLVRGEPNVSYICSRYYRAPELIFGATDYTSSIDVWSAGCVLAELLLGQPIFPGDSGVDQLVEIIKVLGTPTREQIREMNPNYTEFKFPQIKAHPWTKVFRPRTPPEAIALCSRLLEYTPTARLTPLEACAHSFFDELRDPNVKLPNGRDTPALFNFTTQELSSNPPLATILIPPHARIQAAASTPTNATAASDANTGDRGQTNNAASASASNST
Chain of UniProt Q9H422 (whole entry, looked up): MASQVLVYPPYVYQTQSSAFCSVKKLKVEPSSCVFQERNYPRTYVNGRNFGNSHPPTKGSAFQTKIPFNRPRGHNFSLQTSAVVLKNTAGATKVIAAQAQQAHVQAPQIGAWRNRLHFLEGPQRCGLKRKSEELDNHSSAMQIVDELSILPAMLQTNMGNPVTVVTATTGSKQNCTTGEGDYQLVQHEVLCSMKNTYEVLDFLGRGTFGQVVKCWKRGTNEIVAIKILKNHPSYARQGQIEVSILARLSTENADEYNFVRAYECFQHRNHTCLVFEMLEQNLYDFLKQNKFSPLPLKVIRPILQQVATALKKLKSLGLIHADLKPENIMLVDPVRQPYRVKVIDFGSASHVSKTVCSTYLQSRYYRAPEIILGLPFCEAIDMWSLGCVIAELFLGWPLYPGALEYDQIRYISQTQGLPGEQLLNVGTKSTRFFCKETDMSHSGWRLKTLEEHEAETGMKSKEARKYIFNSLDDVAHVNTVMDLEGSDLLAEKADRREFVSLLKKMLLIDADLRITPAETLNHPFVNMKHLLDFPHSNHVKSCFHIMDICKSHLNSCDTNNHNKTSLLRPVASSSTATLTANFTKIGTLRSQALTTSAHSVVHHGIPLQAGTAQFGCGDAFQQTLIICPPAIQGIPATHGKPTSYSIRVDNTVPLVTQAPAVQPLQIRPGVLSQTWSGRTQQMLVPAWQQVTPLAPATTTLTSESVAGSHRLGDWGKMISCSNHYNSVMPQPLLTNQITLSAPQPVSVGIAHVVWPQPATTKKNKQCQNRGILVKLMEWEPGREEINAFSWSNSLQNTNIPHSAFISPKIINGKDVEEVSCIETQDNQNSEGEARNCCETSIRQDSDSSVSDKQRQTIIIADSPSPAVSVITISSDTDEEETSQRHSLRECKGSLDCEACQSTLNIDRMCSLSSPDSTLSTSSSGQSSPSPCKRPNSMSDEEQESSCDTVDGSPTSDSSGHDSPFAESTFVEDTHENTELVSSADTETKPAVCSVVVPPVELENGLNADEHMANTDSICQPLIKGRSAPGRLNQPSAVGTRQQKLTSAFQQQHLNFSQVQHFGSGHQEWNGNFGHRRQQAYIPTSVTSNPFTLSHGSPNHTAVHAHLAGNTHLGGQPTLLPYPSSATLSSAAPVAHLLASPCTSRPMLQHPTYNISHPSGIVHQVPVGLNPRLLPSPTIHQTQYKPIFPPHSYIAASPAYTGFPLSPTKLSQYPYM
Chain of UniProt Q14289 (whole entry, looked up): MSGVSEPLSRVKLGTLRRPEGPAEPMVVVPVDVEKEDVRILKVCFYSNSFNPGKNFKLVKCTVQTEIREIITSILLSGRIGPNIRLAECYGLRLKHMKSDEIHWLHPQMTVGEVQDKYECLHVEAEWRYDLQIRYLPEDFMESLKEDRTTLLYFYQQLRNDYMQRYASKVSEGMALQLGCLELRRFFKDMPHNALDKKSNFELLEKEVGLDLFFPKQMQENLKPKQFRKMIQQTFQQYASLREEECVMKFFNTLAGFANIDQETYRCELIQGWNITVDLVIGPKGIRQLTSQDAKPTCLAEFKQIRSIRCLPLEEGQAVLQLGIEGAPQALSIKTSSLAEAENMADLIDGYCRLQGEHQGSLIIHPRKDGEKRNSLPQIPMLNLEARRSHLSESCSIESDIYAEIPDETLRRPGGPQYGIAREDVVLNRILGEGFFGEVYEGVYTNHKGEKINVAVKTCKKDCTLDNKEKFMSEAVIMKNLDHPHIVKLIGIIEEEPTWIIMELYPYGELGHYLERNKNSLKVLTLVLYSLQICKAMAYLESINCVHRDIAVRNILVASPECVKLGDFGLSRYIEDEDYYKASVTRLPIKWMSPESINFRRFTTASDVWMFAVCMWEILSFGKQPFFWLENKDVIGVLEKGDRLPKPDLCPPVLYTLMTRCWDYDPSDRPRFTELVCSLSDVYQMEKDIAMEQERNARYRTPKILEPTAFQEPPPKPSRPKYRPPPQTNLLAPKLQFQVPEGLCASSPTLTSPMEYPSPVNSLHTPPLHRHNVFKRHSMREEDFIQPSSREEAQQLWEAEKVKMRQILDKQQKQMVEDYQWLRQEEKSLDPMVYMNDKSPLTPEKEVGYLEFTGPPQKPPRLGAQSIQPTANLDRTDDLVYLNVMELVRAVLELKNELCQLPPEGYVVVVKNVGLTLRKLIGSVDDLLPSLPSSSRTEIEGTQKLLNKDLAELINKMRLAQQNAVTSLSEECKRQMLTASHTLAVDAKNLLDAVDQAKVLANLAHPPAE
Chain of UniProt Q9H2G2 (whole entry, looked up): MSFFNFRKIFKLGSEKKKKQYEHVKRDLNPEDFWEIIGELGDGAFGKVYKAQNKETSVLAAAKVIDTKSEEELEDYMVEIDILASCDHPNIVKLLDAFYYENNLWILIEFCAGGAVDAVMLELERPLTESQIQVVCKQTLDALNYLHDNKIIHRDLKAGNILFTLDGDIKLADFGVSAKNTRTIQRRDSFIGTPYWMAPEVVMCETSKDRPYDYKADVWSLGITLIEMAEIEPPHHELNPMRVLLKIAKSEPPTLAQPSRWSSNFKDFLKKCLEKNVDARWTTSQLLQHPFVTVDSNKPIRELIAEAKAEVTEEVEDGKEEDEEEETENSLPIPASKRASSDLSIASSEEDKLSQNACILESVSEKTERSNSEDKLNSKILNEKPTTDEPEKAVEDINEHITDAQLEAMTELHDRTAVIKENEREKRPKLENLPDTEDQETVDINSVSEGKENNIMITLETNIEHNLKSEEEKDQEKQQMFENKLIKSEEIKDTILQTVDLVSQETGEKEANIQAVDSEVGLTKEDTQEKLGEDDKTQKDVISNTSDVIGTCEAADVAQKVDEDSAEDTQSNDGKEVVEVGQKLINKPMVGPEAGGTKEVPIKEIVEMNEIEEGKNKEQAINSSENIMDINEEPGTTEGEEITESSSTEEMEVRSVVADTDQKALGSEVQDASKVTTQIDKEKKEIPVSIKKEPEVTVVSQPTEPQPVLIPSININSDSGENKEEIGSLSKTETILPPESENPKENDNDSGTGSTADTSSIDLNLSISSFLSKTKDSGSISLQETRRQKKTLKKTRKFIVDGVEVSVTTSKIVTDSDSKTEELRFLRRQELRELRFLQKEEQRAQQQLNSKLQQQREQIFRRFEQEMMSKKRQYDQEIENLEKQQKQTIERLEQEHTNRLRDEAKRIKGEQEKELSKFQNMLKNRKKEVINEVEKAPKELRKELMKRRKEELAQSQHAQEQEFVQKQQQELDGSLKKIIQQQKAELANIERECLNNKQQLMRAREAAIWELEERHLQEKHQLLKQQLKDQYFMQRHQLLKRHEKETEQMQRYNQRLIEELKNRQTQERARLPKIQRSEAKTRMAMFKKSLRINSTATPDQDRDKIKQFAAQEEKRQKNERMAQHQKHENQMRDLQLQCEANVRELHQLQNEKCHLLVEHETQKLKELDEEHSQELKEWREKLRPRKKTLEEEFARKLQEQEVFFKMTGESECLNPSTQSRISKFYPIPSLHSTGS
Chain of UniProt P50613 (whole entry, looked up): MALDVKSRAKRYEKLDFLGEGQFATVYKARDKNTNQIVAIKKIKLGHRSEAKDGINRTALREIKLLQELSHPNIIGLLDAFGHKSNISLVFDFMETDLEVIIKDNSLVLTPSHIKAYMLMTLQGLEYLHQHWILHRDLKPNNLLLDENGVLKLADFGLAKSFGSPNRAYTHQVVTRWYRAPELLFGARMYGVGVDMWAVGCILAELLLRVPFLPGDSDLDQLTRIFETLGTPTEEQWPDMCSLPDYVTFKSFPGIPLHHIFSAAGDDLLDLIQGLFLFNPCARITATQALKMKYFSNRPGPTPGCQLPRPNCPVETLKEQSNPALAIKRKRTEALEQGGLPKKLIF
Chain of UniProt Q09013 (whole entry, looked up): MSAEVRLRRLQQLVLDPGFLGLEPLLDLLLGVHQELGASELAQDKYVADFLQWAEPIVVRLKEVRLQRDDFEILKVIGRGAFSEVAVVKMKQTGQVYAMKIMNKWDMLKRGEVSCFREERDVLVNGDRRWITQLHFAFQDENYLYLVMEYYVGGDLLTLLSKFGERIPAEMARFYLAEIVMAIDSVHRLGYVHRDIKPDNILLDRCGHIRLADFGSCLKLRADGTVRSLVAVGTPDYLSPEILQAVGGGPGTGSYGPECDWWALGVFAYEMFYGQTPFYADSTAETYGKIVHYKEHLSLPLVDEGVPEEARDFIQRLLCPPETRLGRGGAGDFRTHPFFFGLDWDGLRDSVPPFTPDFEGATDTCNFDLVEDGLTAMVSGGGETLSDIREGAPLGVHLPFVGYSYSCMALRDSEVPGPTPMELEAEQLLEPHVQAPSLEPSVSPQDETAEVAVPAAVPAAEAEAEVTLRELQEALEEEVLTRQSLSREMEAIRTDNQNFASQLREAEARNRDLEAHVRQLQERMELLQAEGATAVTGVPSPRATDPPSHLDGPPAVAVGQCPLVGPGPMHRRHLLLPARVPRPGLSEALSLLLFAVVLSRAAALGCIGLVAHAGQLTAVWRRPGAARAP

Study 1 — read-out: enzyme activity; action: inhibitor; concentration: 0.5 µM; baseline: control
Structure (SMILES): CC(C)[C@H](CO)Nc1nc(Nc2cccc(Cl)c2)c2ncn(C(C)C)c2n1
Dual specificity tyrosine-phosphorylation-regulated kinase 4 (DYRK4, Homo sapiens, UniProt Q9NR20) — remaining activity: 91.2%.
For G protein-coupled receptor kinase 5 (GRK5, Homo sapiens, UniProt P34947): remaining activity read 101%.
Epidermal growth factor receptor (EGFR, Homo sapiens, UniProt P00533) — remaining activity: 94.2%.
The remaining activity was 15% (NT-3 growth factor receptor (NTRK3, Homo sapiens, UniProt Q16288)).
The remaining activity was 81.4% (Proto-oncogene tyrosine-protein kinase receptor Ret (RET, Homo sapiens, UniProt P07949)).
The remaining activity was 66.5% (Protein-tyrosine kinase 2-beta (PTK2B, Homo sapiens, UniProt Q14289)).
For Cyclin-dependent kinase 7 (CDK7, Homo sapiens, UniProt P50613): remaining activity read 59.5%.
It gave 80.6% for remaining activity (Aurora kinase A (AURKA, Homo sapiens, UniProt O14965)).
The remaining activity was 96.9% (Serine/threonine-protein kinase D1 (PRKD1, Homo sapiens, UniProt Q15139)).
It gave 96.7% for remaining activity (Mitogen-activated protein kinase 10 (MAPK10, Homo sapiens, UniProt P53779)).
It gave 101% for remaining activity (Mitogen-activated protein kinase kinase kinase 8 (MAP3K8, Homo sapiens, UniProt P41279)).
The remaining activity was 100% (Rho-associated protein kinase 2 (ROCK2, Homo sapiens, UniProt O75116)).
Mitogen-activated protein kinase kinase kinase 2 (MAP3K2, Homo sapiens, UniProt Q9Y2U5) — remaining activity: 97.8%.
Casein kinase II subunit alpha' (CSNK2A2, Homo sapiens, UniProt P19784) — remaining activity: 93.2%.
For Calcium/calmodulin-dependent protein kinase type 1G (CAMK1G, Homo sapiens, UniProt Q96NX5): remaining activity read 94.9%.
The remaining activity was 73.1% (STE20-like serine/threonine-protein kinase (SLK, Homo sapiens, UniProt Q9H2G2)).
Myotonin-protein kinase (DMPK, Homo sapiens, UniProt Q09013) — remaining activity: 108%.
It gave 88.1% for remaining activity (Proto-oncogene tyrosine-protein kinase ROS (ROS1, Homo sapiens, UniProt P08922)).
For Homeodomain-interacting protein kinase 3 (HIPK3, Homo sapiens, UniProt Q9H422): remaining activity read 102%.

Study 2 — technique: RNA Bind-n-Seq; molecule type: RNA; medium: in vitro; concentration: 365 nM; baseline: no-protein control; direction: higher = stronger binding
Target: RNA binding protein fox-1 homolog 2, RRM domain, GST-SBP tag (RBFOX2, Homo sapiens, UniProt O43251-10, residues 100-194)
Notes: natural RNA segment, single round, ends assumed
Target sequence (chain): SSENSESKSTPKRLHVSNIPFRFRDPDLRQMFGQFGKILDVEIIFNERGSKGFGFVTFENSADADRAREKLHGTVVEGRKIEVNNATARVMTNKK
Under “RBNS enrichment (R)”, `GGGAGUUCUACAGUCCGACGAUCACAUGCAAACAGCCUACUUCUUCAUGAACAAUUCCAUUUUAUUGACUGAACUUUUCUCAUAUUUUCACAUUUCUCAGUCCUGAAGAAUAAGGAAAACAAAGCGACGCCUAUGGAAUUCUCGGGUGCCAA` is recorded as 0.409.
For `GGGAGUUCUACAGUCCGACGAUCCUUUGACAUCACAGGUCCCUUCCAGGGGUACCACUGGGUAGCUGCAGUGUGCACCGGUCACUACAUUCAGGCUAUUUGAGGUUUUCAUAUGCUGCAUUUCUUUGUUUUUAUGGAAUUCUCGGGUGCCAA`, “RBNS enrichment (R)” read 0.418.
Under “RBNS enrichment (R)”, `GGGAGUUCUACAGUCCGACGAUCUGUGUUCCAUGAUUUUGCUUAAAUUAAUACUUUUAAGUAAUGGAACUUUUUUCAAAGGCAAAUUUAAACUAUUUAAGAAAUAGCUCCUAAUACUUGGGAUCUUGUUUAGAUGGAAUUCUCGGGUGCCAA` is recorded as 0.447.
`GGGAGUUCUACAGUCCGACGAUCUUAGAAGCCAGAGCUCUCCUCCAGGCUCCUUCCCAGUGCCUAGAGGUGCUAUAGGAAACAUAGAUCCAGCCAGGGGCUUCCCUAAAGCAGUGCAGCACCGGCCCAGGGCAUGGAAUUCUCGGGUGCCAA` — result for “RBNS enrichment (R)”: 0.751.
`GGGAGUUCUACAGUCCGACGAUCCCCGCUUCCCCAGUCUUUAAACAUUGGACGCUAUUUACUCAGCUACCCAGUAGAGCUUGAAGCUGACCUUUCUGAGAAGUUGGUAUGGUGUAACACUAAAGUAGGUGGUUUGGAAUUCUCGGGUGCCAA` — result for “RBNS enrichment (R)”: 0.336.
Under “RBNS enrichment (R)”, `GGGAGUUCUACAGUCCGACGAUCAAGCUAACUCUUAUUUUUCAGGGGGCACAUGUUUUGUUUUGUUAUGUUUUGUUGUACAAUGAAGGAUGAACCCAAUGCUAAAAAGUCAGUUAUUUUCUUGGUUUUCCAUUUGGAAUUCUCGGGUGCCAA` is recorded as 1.24.
For `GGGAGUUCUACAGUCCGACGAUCGAACAUGUUUUCUUCAGGAACAACCAGAGGUAUCACAAACACUGUUACUCAUCUACUGGCUCAGACUGUACUACUUUUUUUUUUUUUUUUCCUGAAAAAGAAACCAGAAAUGGAAUUCUCGGGUGCCAA`, “RBNS enrichment (R)” read 0.416.
`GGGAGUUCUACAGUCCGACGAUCCUUAGGGUUUGGGAGAAGUUGGAAUUAACCCAAGGUCAAGUCCUUUCUUUUGCCUCCGAGAUGACCAAAUGCACUUGUGUCUUCUGUUUGUUGCUUGUUGAGUAAGCAGCUGGAAUUCUCGGGUGCCAA` — result for “RBNS enrichment (R)”: 1.47.

Study 3 — SMILES: CCOc1ccc(Nc2c3c(nc4ccccc24)CCC3)cc1; organism: Leishmania donovani; strain: DD8; medium: promastigotes
0.66 µM, 48 h — promastigote number: 4.35e+06 and 4.37e+06.
The promastigote number was 1560 and 1550 (33.33 µM, 48 h).
It gave 5.66e+06 and 5.65e+06 for promastigote number (3.33 µM, 72 h).

Study 4 — technique: protein binding microarray; molecule type: double-stranded DNA, one strand shown; medium: in vitro; concentration: not given; baseline: not given; direction: higher = stronger binding
Target: Histone acetyltransferase KAT6A, winged helix 2, GST fusion (KAT6A, Homo sapiens, UniProt Q92794, residues 85-181)
Notes: 8-mer, flanks averaged, mean of 2 arrays, mostly near background
Construct (chain): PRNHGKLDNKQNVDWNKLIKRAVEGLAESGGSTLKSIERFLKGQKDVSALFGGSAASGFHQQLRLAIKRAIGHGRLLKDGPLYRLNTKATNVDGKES
`GTCTAGAC` has an E-score of -0.18.
`GGCCACAC` has an E-score of 0.0409.
The E-score of `AAACTAAG` is reported as 0.0789.
`CGCCTACG` has an E-score of 0.046.
`CTCTGATA` gave an E-score of 0.061.
With `GAATTCGA` the E-score was 0.0689.
`ATTGCTGA` gave an E-score of 0.117.
`GCCGAGAA` has an E-score of 0.119.

Further values, each from its own experiment
`C[C@@H]1CN(c2cc(-c3n[nH]c4ccc(OC5(C)CC5)cc34)ncn2)C[C@H](C)O1` gave a remaining activity of 0% (Tyrosine-protein kinase JAK3 (JAK3, Homo sapiens, UniProt P52333); enzyme activity, inhibitor; 1 µM).
`COc1cc(C(=O)OCCCN2CCCN(CCCOC(=O)c3cc(OC)c(OC)c(OC)c3)CC2)cc(OC)c1OC` — result for “paw withdrawal frequency”: 0.05 fraction of stimuli and 0.29 fraction of stimuli and 0.03 fraction of stimuli and 0.36 fraction of stimuli and 0.32 fraction of stimuli (von Frey test; mouse, STZ diabetic neuropathy; subcutaneous, 30 mg/kg, second of three doses, 24 h).
`Cc1ccc(-c2cnc([C@@]3(O)CC[C@H](C(=O)O)C(C)(C)C3)s2)cc1Nc1cccc(C(F)(F)F)n1` gave a Kd of greater than 10 µM (LIM domain kinase 1 (LIMK1, Homo sapiens, UniProt P53667); binding, competition with immobilised ligand).
For `CC(=O)N[C@@H](Cc1c[nH]c2ccccc12)C(=O)N[C@@H](CCC(=O)C=[N+]=[N-])C(=O)OC(C)C`, the spermine level was 2.37e+06 a.u. and 2.95e+06 a.u. and 2.08e+06 a.u. and 1.33e+06 a.u. and 2.77e+06 a.u. and 3.1e+06 a.u. (UPLC-MS/MS; EL4 tumor, C57BL/6 CES1-/- mice, tumor; subcutaneous, 0.3 mg/kg DON equivalent daily, 5 days; higher = more metabolite).
`C[C@H](NC(=O)Nc1cc2[nH]ncc2c(CO)n1)c1ccccn1` has an EC50 of greater than 50 µM (Glycogen synthase kinase-3 beta (GSK3B, Homo sapiens, UniProt P49841); target engagement, NanoBRET; live cells).

Repeated from above (study 3):
0.66 µM, 48 h — promastigote number: 4.35e+06 and 4.37e+06.
The promastigote number was 1560 and 1550 (33.33 µM, 48 h).
It gave 5.66e+06 and 5.65e+06 for promastigote number (3.33 µM, 72 h).
